# Results collected from several papers.
# Lines come from different studies, so protocols differ.
# Target: Serine/threonine-protein kinase WNK3 (WNK3, Homo sapiens, UniProt Q9BYP7)
SMILES,test,conditions,scale,endpoint,result
Cc1cnc2nc1Nc1cccc(c1)COC/C=C/COCc1cc(ccc1OCCN1CCOCC1)N2,"binding, competition with immobilised ligand",0.1 µM,,remaining binding,100%
COCC12C(=O)NC3C4(C(OC)CC1O)C1CC5(O)C(OC)C(O)C(OC(C)=O)(C1C5OC(=O)c1ccccc1)C3(O)C(OC)C24 (stereo not shown),"kinase activity, inhibitor, ProQinase kinase profiling",25 µM,reference: control,remaining activity,100%
O=C=[N][Ru-4]123([n]4c5ccc(O)cc5c5c6c(c7cc(F)c[n+]1c7c54)C(=O)NC6=O)[S+]1CC[S+]2CC[S+]3CC1 (stereo not shown),enzyme activity,"100 nM, human enzyme, added: 10 µM ATP",reference: untreated,remaining activity,99%
COc1c(Cl)cccc1Nc1c(-c2ccncc2C#C[C@@]2(C)CCCN2C(=O)/C=C/CN(C)C)[nH]c2c1C(=O)NCC2,"binding, competition with immobilised ligand",3 µM,,remaining binding,100%
CCN1CCN(Cc2ccc(C(=O)Nc3ccc(C)c(NCc4cnc5[nH]ccc5c4OC)c3)cc2C(F)(F)F)CC1,"binding, competition with immobilised ligand",1 µM,,remaining binding,100%
COc1cc(Nc2nccc(-c3cnn4nc(OC)ccc34)n2)cc(C(F)(F)F)c1,"binding, competition with immobilised ligand",1 µM,,remaining binding,78%
O=C(Cc1ccc(OCc2ccccc2)cc1)NC1(C(=O)O)CCN(C(=O)c2ccc(-c3cccc(Cl)c3)cc2)CC1,"enzyme activity, inhibitor",10 µM,,activity vs control,123%
Nc1ncc2c(n1)-c1c([nH]c3ccc(C4=CCOCC4)cc13)CCC2,"binding, competition with immobilised ligand",1 µM,,remaining binding,87%
CC(C)=CC1OC(C)(C)C2C=C3C(=O)C(Cl)=CC(O)C3C3C(O)C4OC4C(=O)C132 (stereo not shown),"cell-free assay, competition with immobilised ligand",10 µM,,remaining binding,74%
COc1ccc(NC(=O)Nc2ccc3c(c2)C(=O)N(C(C)CO)CC(C)C(CN(C)Cc2ccc4c(c2)OCO4)O3)cc1 (stereo not shown),"kinase activity, KinaseProfiler","0.03 µM, species human",reference: control,remaining activity,102%
CN1CCN(Cc2ccc(-c3ccc(CO[C@H]4CCC[C@@H]4NC(=O)c4cc(-c5cnn(C)c5)cnc4N)cc3)cc2)CC1,"enzyme activity, inhibitor",0.1 µM,,inhibition,-18%
NC(=O)[C@@H](O)C[C@H]1CCc2sc3ncnc(O[C@H]4CC[C@H](N5CCOCC5)CC4)c3c21,"enzyme activity, inhibitor",10 µM,,inhibition,8%
C=CC(=O)N1Cc2nc(-c3cc(-c4cc(Cl)cnc4Cl)c(F)cc3F)n(-c3ccncn3)c2C1,"cell-free assay, inhibitor",1 µM,,inhibition,3.9%

# For quick reference, copied from above:
SMILES,test,conditions,scale,endpoint,result
CN1CCN(Cc2ccc(-c3ccc(CO[C@H]4CCC[C@@H]4NC(=O)c4cc(-c5cnn(C)c5)cnc4N)cc3)cc2)CC1,"enzyme activity, inhibitor",0.1 µM,,inhibition,-18%
